Results gathered from unrelated publications.
Each line is one published result; not all experiments were run side by side. Numbers after ± are the reported error.
CA2: Carbonic anhydrase 2 (CA2, Homo sapiens, UniProt P00918)
CA12: Carbonic anhydrase 12 (CA12, Homo sapiens, UniProt O43570)
Chain of UniProt O43570 (whole entry, looked up): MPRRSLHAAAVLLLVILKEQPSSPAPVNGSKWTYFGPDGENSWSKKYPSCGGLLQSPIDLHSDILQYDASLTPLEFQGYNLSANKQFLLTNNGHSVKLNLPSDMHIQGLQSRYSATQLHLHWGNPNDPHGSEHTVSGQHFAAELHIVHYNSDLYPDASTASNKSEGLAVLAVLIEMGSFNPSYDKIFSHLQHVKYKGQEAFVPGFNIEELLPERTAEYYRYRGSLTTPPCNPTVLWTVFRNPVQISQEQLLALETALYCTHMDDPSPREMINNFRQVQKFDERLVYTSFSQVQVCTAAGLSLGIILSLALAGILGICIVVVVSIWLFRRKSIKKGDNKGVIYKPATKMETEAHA
Chymotrypsin-C: Chymotrypsin-C (Homo sapiens, UniProt Q99895)
Chain of UniProt Q99895 (whole entry, looked up): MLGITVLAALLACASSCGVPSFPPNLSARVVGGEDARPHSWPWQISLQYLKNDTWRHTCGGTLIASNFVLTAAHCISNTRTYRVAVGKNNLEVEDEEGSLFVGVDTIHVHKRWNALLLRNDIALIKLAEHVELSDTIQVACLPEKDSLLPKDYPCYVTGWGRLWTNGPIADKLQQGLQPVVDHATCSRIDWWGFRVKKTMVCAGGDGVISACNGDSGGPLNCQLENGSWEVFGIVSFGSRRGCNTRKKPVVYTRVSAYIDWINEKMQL
HTR2C: 5-hydroxytryptamine receptor 2C (HTR2C, Homo sapiens, UniProt P28335)
Chain of UniProt P28335 (whole entry, looked up): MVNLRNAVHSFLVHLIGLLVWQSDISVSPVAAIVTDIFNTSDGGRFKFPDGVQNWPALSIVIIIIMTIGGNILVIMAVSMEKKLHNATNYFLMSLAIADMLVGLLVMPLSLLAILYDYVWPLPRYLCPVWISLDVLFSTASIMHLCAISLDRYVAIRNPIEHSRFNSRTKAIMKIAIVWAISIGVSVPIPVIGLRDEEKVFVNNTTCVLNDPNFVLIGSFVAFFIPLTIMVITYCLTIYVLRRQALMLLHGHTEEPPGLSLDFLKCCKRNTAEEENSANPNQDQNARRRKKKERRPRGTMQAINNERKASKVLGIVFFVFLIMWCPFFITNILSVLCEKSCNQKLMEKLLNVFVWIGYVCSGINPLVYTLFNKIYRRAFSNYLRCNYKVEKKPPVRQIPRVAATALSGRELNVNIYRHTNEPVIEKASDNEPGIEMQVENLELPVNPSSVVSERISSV
Chain of UniProt Q9P2K8 (whole entry, looked up): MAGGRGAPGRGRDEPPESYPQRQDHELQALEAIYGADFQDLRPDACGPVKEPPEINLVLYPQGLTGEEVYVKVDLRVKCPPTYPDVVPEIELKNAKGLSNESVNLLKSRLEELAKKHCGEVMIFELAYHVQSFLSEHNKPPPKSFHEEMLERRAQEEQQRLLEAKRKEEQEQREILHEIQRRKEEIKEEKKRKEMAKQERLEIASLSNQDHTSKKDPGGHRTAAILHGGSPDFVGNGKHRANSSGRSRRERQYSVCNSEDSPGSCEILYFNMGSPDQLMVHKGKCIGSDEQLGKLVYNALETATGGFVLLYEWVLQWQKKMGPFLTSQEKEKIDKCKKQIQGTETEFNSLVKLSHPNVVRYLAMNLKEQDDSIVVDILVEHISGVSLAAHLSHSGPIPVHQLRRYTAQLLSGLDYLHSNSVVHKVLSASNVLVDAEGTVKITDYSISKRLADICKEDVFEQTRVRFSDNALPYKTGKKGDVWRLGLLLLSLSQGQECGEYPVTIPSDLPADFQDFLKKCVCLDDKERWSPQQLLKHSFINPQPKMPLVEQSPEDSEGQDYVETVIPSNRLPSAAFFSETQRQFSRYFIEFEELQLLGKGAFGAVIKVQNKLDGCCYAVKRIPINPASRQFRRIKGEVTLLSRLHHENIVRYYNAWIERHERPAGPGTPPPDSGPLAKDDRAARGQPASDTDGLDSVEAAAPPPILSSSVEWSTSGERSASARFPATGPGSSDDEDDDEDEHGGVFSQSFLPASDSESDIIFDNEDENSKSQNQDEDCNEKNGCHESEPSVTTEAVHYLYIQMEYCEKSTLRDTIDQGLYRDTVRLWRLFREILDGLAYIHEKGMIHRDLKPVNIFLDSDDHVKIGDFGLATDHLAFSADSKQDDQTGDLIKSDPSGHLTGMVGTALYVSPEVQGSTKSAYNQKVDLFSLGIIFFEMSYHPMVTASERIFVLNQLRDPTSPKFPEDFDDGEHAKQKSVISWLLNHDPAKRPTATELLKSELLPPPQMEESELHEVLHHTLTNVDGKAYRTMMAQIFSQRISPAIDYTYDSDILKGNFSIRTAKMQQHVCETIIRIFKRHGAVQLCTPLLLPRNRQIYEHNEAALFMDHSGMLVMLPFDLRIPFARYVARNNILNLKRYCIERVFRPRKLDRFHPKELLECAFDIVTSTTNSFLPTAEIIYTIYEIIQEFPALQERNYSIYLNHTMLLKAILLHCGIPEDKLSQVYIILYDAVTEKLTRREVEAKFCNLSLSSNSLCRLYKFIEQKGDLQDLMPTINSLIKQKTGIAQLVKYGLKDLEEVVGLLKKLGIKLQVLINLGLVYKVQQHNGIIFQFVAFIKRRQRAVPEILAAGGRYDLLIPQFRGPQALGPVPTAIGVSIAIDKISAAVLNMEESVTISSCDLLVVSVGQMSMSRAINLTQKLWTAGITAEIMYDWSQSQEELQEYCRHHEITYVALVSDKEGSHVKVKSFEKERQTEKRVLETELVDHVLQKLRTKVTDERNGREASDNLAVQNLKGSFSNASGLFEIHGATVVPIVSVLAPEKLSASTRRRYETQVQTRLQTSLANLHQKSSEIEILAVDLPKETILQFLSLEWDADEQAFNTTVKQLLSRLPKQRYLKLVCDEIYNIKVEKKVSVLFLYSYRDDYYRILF
Chain of UniProt Q62666 (whole entry, looked up): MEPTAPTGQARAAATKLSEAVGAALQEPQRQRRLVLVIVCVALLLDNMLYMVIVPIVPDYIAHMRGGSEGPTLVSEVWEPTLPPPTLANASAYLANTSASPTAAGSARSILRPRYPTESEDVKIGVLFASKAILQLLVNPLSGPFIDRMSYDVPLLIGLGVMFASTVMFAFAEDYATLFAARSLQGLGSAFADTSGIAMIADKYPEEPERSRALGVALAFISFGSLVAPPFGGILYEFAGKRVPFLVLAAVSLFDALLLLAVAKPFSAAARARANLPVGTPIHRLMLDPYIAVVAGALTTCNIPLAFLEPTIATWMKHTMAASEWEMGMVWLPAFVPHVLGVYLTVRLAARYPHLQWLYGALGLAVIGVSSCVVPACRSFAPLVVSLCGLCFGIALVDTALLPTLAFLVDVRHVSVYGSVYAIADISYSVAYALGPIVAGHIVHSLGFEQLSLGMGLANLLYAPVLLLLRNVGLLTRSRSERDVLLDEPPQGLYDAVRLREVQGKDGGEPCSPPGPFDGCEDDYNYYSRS
Chain of UniProt P47936 (whole entry, looked up): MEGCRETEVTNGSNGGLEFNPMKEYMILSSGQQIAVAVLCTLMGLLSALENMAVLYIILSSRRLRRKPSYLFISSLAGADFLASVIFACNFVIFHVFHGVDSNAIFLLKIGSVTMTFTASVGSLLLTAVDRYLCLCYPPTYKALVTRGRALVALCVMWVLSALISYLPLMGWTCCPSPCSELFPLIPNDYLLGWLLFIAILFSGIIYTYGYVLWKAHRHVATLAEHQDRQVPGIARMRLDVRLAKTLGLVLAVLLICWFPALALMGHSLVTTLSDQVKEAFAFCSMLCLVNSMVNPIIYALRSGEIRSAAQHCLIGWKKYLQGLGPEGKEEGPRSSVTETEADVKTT
Chain of UniProt Q9Y6E0 (whole entry, looked up): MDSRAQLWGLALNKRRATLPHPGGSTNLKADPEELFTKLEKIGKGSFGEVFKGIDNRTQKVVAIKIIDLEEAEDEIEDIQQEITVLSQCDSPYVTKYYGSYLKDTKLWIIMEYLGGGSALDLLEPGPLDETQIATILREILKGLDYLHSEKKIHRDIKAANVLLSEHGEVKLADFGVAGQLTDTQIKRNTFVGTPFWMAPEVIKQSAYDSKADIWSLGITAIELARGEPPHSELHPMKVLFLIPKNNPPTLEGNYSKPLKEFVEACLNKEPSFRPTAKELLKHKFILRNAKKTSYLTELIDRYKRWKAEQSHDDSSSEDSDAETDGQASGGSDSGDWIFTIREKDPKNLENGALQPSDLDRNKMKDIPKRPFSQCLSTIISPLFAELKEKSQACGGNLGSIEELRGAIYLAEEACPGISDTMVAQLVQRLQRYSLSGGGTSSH
Chain of UniProt P21917 (whole entry, looked up): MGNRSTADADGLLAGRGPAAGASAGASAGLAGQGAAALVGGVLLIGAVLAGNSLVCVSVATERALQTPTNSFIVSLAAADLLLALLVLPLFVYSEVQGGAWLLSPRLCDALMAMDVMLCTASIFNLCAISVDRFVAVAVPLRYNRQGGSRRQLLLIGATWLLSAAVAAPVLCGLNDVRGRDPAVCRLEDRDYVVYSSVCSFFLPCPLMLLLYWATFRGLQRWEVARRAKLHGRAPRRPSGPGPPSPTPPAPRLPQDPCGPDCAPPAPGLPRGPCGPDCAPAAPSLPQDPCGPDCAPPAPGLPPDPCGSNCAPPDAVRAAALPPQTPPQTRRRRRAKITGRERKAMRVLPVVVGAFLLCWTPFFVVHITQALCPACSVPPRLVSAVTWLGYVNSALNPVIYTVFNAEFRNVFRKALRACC
Chain of UniProt P41143 (whole entry, unmodified, looked up): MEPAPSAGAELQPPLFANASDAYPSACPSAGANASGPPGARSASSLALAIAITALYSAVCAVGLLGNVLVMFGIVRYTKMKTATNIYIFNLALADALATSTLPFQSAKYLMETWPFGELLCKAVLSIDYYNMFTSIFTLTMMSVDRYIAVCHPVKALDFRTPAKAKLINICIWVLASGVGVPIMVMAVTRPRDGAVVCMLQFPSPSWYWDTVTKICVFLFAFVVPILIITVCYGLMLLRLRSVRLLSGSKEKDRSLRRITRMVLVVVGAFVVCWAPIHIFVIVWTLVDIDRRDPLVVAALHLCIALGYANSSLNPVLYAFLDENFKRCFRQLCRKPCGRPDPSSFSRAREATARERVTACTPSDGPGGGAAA

Structure (SMILES) | tested on | test | test system | setting | scale | endpoint | value
C[C@@H](Cc1ccsc1)NC(=O)NC[C@H](Cc1ccc(O)cc1)N(C)C | D(4) dopamine receptor (DRD4, Homo sapiens, UniProt P21917) | – | – | – | – | Ki | 20000 ± 4100 nM
COc1c(C(C)C)cc2c(c1O)[C@@]1(C(=O)O)CCCC(C)(C)C1CC2 (stereo partly drawn) | CA2 | enzyme activity, inhibitor | – | – | – | Ki | 4.5 nM
O=S(=O)(N/N=C/c1ccc(OS(=O)(=O)c2ccc(Br)cc2)cc1)c1cc(Cl)ccc1Cl | CA2 | enzyme activity, inhibitor, absorbance | – | – | – | Ki | 107 nM
N[C@H]1CCSC1=O | CA12 | CO2 hydration activity, inhibitor, stopped-flow CO2 hydration | – | room temperature preincubation | – | Ki | > 100000 nM
CC(C)C[C@@H]1NC(=O)[C@H](CC(C)C)NC(=O)[C@H](CC(C)C)NC(=O)[C@H]([C@@H](C)O)NC(=O)[C@@H]2CSSC[C@@H]3NC(=O)[C@H]([C@@H](C)O)NC(=O)[C@H](CC(N)=O)NC(=O)[C@H](CSSC[C@@H](C(=O)N[C@H](C(=O)N[C@@H](CCC(N)=O)C(=O)O)C(C)C)NC1=O)NC(=O)[C@H](CCCCN)NC(=O)[C@H](CC(=O)O)NC(=O)[C@H](CCCCN)NC(=O)[C@H](Cc1ccccc1)NC(=O)[C@H]([C@@H](C)O)NC(=O)[C@H]([C@@H](C)O)NC(=O)CNC(=O)[C@@H]1CCCN1C(=O)[C@H](CCC(=O)O)NC(=O)[C@@H](NC(=O)[C@@H](NC(=O)[C@@H](NC(=O)[C@H](CCC(=O)O)NC(=O)[C@H](CO)NC(=O)CN)C(C)C)[C@@H](C)O)CSSC[C@H](NC(=O)[C@H](CCCNC(=N)N)NC3=O)C(=O)NCC(=O)N[C@@H](CO)C(=O)N[C@@H](CC(=O)O)C(=O)NCC(=O)N[C@@H](CCCCN)C(=O)N[C@@H](CO)C(=O)N[C@@H](C)C(=O)N[C@@H](Cc1c[nH]c3ccccc13)C(=O)N2 | Chymotrypsin-C | enzyme activity, inhibitor | – | – | – | Ki | 11.1 ± 3.49 nM
CC(C)(C)C(=O)OCOP(=O)(OCOC(=O)C(C)(C)C)C1CCCN(O)C1=O (stereo not drawn) | SNB-19 | – | – | – | – | log LC50 | > -4 log M
CC(C)[C@@H]1NC(=O)[C@H](Cc2ccccc2)NC(=O)[C@H](Cc2ccc(O)cc2)NC(=O)CCSSCCC(=O)N[C@@H](Cc2ccc(O)cc2)C(=O)N[C@@H](Cc2ccccc2)C(=O)N[C@@H](C(C)C)C(=O)N[C@@H](CC(N)=O)C(=O)N[C@H](C(=O)N2CCC[C@H]2C(=O)N[C@H](CCCNC(=N)N)C(=O)NCC(N)=O)CSSC[C@@H](C(=O)N2CCC[C@H]2C(=O)N[C@H](CCCNC(=N)N)C(=O)NCC(N)=O)NC(=O)[C@H](CC(N)=O)NC1=O | Vasopressin V1b receptor (AVPR1B, Homo sapiens, UniProt P47901) | ligand displacement, radioligand | – | – | – | Ki | 3.3 nM
OC1Cc2ccccc2CC1N1CCC2(C=Cc3ccc(Br)cc32)CC1 (racemic) | Vesicular acetylcholine transporter (Rattus norvegicus, UniProt Q62666) | radioligand binding | PC12 expressing VAChT | added: [3H]vesamicol | – | Ki | 11 ± 1 nM
O=C1c2ccccc2CCCN1CCCCN1CCN(c2cccc(Cl)c2Cl)CC1 | HTR2C | ligand displacement, radioligand | – | – | – | Ki | 317 nM
Cc1ccc(S(=O)(=O)Oc2ccc(/C=N/NS(=O)(=O)c3ccc(Cl)cc3)cc2)cc1 | CA2 | enzyme activity, inhibitor, absorbance | – | – | – | Ki | 74.5 nM
CC(C)C[C@H](NC(=O)[C@H](CCCNC(=N)N)NC(=O)[C@H](CCCNC(=N)N)NC(=O)[C@H](CCCCN)NC(=O)[C@@H](NC(=O)[C@@H]1CCCN1C(=O)[C@@H]1CCCN1C(=O)[C@H](CCCNC(=N)N)NC(=O)CN)C(C)C)C(=O)N[C@@H](CC(=O)O)C(=O)N[C@@H](CC(C)C)C(=O)N[C@@H](CCC(=O)O)C(=O)N[C@H](C(=O)N[C@@H](CC(=O)O)C(=O)N[C@@H](Cc1c[nH]cn1)C(=O)N[C@@H](CCC(N)=O)C(=O)O)[C@@H](C)O | Cyclin-A2 (CCNA2, Homo sapiens, UniProt P20248) | probe binding, fluorescence polarization competition | – | pH 8.0 | – | Ki | 3000 ± 2000 nM
CC(C)C[C@@H]1NC(=O)[C@H](CC(C)C)NC(=O)[C@H](CC(C)C)NC(=O)[C@H]([C@@H](C)O)NC(=O)[C@@H]2CSSC[C@@H]3NC(=O)[C@H]([C@@H](C)O)NC(=O)[C@H](CC(N)=O)NC(=O)[C@H](CSSC[C@@H](C(=O)N[C@@H](CC(=O)O)C(=O)N[C@@H](CCC(N)=O)C(=O)O)NC1=O)NC(=O)[C@H](CCCCN)NC(=O)[C@H](CC(=O)O)NC(=O)[C@H](CCCCN)NC(=O)[C@H](Cc1ccccc1)NC(=O)[C@H]([C@@H](C)O)NC(=O)[C@H]([C@@H](C)O)NC(=O)CNC(=O)[C@@H]1CCCN1C(=O)[C@H](CCC(=O)O)NC(=O)[C@@H](NC(=O)[C@@H](NC(=O)[C@@H](NC(=O)[C@H](CCC(=O)O)NC(=O)[C@H](CO)NC(=O)CN)C(C)C)[C@@H](C)O)CSSC[C@H](NC(=O)[C@H](CCCNC(=N)N)NC3=O)C(=O)NCC(=O)N[C@@H](CO)C(=O)N[C@@H](CC(=O)O)C(=O)NCC(=O)N[C@@H](CCCCN)C(=O)N[C@@H](CO)C(=O)N[C@@H](C)C(=O)N[C@@H](Cc1c[nH]c3ccccc13)C(=O)N2 | Chymotrypsin-C | enzyme activity, inhibitor | – | – | – | Ki | 2.09 ± 0.65 nM
CCOC(=O)C(CC)(CC)NC(=O)c1ccc(C2CC2)c(Cc2ccc(F)cc2)n1 | Cannabinoid receptor 2 (Cnr2, Mus musculus, UniProt P47936) | ligand displacement, radioligand | – | cell membranes | – | Ki | 1.8 nM
CN(C)[C@H]1C[C@@]23CC[C@@]4(O2)C(=CC[C@]2(C)[C@@H](c5ccc6ccncc6c5)CC[C@H]24)C=C3[C@@H](O)[C@@H]1O | Serine/threonine-protein kinase 24 (STK24, Homo sapiens, UniProt Q9Y6E0) | ATP probe labelling, inhibitor, KiNativ profiling | – | 1 µM | – | inhibition | 0.9%
COc1ccccc1-c1n[nH]c2nc(NC3CCN(C(=O)Cc4ccc(F)cc4F)CC3)ncc12 | – | bead binding, competition bead pull-down, refers to: LINJ.23.0310 | Leishmania donovani extract | 10 µM | relative to: vehicle | relative abundance | 1.09
Cc1cc(O)cc(C)c1C[C@H](N)C(=O)N[C@H](CCCNC(=N)N)C(=O)N[C@@H](Cc1ccccc1)C(=O)N(C)CC(=O)N(C)Cc1cc(C(F)(F)F)cc(C(F)(F)F)c1 | Delta-type opioid receptor (OPRD1, Homo sapiens, UniProt P41143, I277A) | – | – | – | – | Ki | 6.14 ± 1.04 nM
CS(C)(=O)=Nc1ccc(-c2ccc(-c3nc4cc(O[C@@H]5CO[C@H]6[C@@H]5OC[C@H]6O)[nH]c4cc3F)cc2)cc1 | eIF-2-alpha kinase GCN2 (EIF2AK4, Homo sapiens, UniProt Q9P2K8) | enzyme activity, inhibitor | – | 10 µM | – | inhibition | 8%
Cc1c(Cl)c(=O)oc2cc(OCCCCCC[Se]C#N)ccc12 | CA12 | enzyme activity, inhibitor, stopped-flow | – | – | – | Ki | 90.4 nM
O=S(=O)(N/N=C/c1ccc(OS(=O)(=O)c2ccccc2)cc1)c1cc(Cl)ccc1Cl | CA2 | enzyme activity, inhibitor, absorbance | – | – | – | Ki | 81.5 nM
CC(C)[C@H](N)C(=O)N[C@@H](CC(N)=O)C(=O)N[C@@H](Cc1ccc(O)cc1)C(=O)N[C@@H](CC(=O)O)C(=O)O | Angiotensin-converting enzyme (ACE, Homo sapiens, UniProt P12821) | enzyme activity, inhibitor, absorbance | – | – | – | Ki | 474000 nM
O=C1NC(=O)c2c1c1cc(F)c[n+]3c1c1c2c2cc(O)ccc2[n]1[Ru-4]312([N]=C=S)[S+]3CC[S+]1CC[S+]2CC3 (stereo not drawn) | Serine/threonine-protein kinase PAK 6 (PAK6, Homo sapiens, UniProt Q9NQU5) | enzyme activity | – | 100 nM, human enzyme, added: 10 µM ATP | relative to: untreated | remaining activity | 62%
COc1ccccc1-c1n[nH]c2nc(N[C@H]3CC[C@H](NS(=O)(=O)CC(C)C)CC3)ncc12 | – | bead binding, competition bead pull-down, refers to: LINJ.33.2190 | Leishmania donovani extract | 10 µM | relative to: vehicle | relative abundance | 0.71
O=C1NC2(CC2)COc2ncc(F)cc2[C@H]2COCCN2c2ccn3ncc1c3n2 | – | – | Sprague-Dawley rat, female, serum | oral, 5 mg/kg/day, end of recovery, 4-week subacute toxicity | – | serum triglycerides | 0.37 ± 0.11 mmol/L
CC(C)[C@H]1NC(=O)C[C@H]2/C=C/CCSSC[C@@H](NC1=O)C(=O)N[C@H](Cc1cccc3ccccc13)C(=O)NCC(=O)O2 | Serine/threonine-protein kinase PLK2 (PLK2, Homo sapiens, UniProt Q9NYY3) | enzyme activity, inhibitor | – | 10 µM | – | inhibition | 0.6%
COc1cc2c(cc1O)C(CCc1ccc(Cl)cc1)N(C)CC2 (stereo not drawn) | HTR2C | cell-free assay, radioligand | – | – | – | Ki | 1400 nM
Cc1cc(=O)oc2cc(OCCCCCC[Se]C#N)ccc12 | CA2 | enzyme activity, inhibitor, stopped-flow | – | – | – | Ki | > 100000 nM
CSCC[C@@H]1NC(=O)[C@H](CC(C)C)NC(=O)[C@H](Cc2c[nH]c3ccccc23)NC(=O)[C@@H]2CSSC[C@@H]3NC(=O)[C@H]([C@@H](C)O)NC(=O)[C@H](CC(N)=O)NC(=O)[C@H](CSSC[C@@H](C(=O)N[C@@H](CC(=O)O)C(=O)N[C@@H](CCC(N)=O)C(=O)O)NC(=O)[C@H](CC(C)C)NC1=O)NC(=O)[C@H](CCCCN)NC(=O)[C@H](CC(=O)O)NC(=O)[C@H](CCCCN)NC(=O)[C@H](Cc1ccccc1)NC(=O)[C@H]([C@@H](C)O)NC(=O)[C@H]([C@@H](C)O)NC(=O)CNC(=O)[C@@H]1CCCN1C(=O)[C@H](CCC(=O)O)NC(=O)[C@@H](NC(=O)[C@@H](NC(=O)[C@@H](NC(=O)[C@H](CCC(=O)O)NC(=O)[C@H](CO)NC(=O)CN)C(C)C)[C@@H](C)O)CSSC[C@H](NC(=O)[C@H](CCCNC(=N)N)NC3=O)C(=O)NCC(=O)N[C@@H](CO)C(=O)N[C@@H](CC(=O)O)C(=O)NCC(=O)N[C@@H](CCCCN)C(=O)N[C@@H](CO)C(=O)N[C@@H](C)C(=O)N[C@@H](C)C(=O)N2 | Chymotrypsin-C | enzyme activity, inhibitor | – | – | – | Ki | 13.9 ± 2.89 nM
N[C@H]1CCOC1=O | CA2 | CO2 hydration activity, inhibitor, stopped-flow CO2 hydration | – | room temperature preincubation | – | Ki | > 100000 nM
CSCC[C@@H]1NC(=O)[C@H](Cc2ccccc2)NC(=O)[C@H]([C@@H](C)O)NC(=O)[C@@H]2CSSC[C@@H]3NC(=O)[C@H]([C@@H](C)O)NC(=O)[C@H](CC(N)=O)NC(=O)[C@H](CSSC[C@@H](C(=O)N[C@@H](CC(=O)O)C(=O)N[C@@H](CCC(N)=O)C(=O)O)NC(=O)[C@H](CC(C)C)NC1=O)NC(=O)[C@H](CCCCN)NC(=O)[C@H](CC(=O)O)NC(=O)[C@H](CCCCN)NC(=O)[C@H](Cc1ccccc1)NC(=O)[C@H]([C@@H](C)O)NC(=O)[C@H]([C@@H](C)O)NC(=O)CNC(=O)[C@@H]1CCCN1C(=O)[C@H](CCC(=O)O)NC(=O)[C@@H](NC(=O)[C@@H](NC(=O)[C@@H](NC(=O)[C@H](CCC(=O)O)NC(=O)[C@H](CO)NC(=O)CN)C(C)C)[C@@H](C)O)CSSC[C@H](NC(=O)[C@H](CCCNC(=N)N)NC3=O)C(=O)NCC(=O)N[C@@H](CO)C(=O)N[C@@H](CC(=O)O)C(=O)NCC(=O)N[C@@H](CCCCN)C(=O)N[C@@H](CO)C(=O)N[C@@H](C)C(=O)N[C@@H](C)C(=O)N2 | Chymotrypsin-C | enzyme activity, inhibitor | – | – | – | Ki | 0.54 ± 0.05 nM
O=[N+]([O-])c1ccc(S(=O)(=O)Oc2ccc(/C=N/NS(=O)(=O)c3cc(Cl)ccc3Cl)cc2)cc1 | CA2 | enzyme activity, inhibitor, absorbance | – | – | – | Ki | 17.5 nM

Excerpt of the above:
Structure (SMILES) | tested on | test | test system | setting | scale | endpoint | value
O=S(=O)(N/N=C/c1ccc(OS(=O)(=O)c2ccccc2)cc1)c1cc(Cl)ccc1Cl | CA2 | enzyme activity, inhibitor, absorbance | – | – | – | Ki | 81.5 nM
CC(C)[C@H](N)C(=O)N[C@@H](CC(N)=O)C(=O)N[C@@H](Cc1ccc(O)cc1)C(=O)N[C@@H](CC(=O)O)C(=O)O | Angiotensin-converting enzyme (ACE, Homo sapiens, UniProt P12821) | enzyme activity, inhibitor, absorbance | – | – | – | Ki | 474000 nM
O=C1NC(=O)c2c1c1cc(F)c[n+]3c1c1c2c2cc(O)ccc2[n]1[Ru-4]312([N]=C=S)[S+]3CC[S+]1CC[S+]2CC3 (stereo not drawn) | Serine/threonine-protein kinase PAK 6 (PAK6, Homo sapiens, UniProt Q9NQU5) | enzyme activity | – | 100 nM, human enzyme, added: 10 µM ATP | relative to: untreated | remaining activity | 62%
